Assay results pooled from the literature.
Each line is one published result; not all experiments were run side by side.
Organism: Candida albicans

The MIC of `CCCCCOc1ccc(-c2ccc(-c3ccc(C(=O)N[C@H]4C[C@@H](O)[C@@H](OCC[N+](C)(C)C)NC(=O)[C@@H]5[C@@H](O)[C@@H](C)CN5C(=O)[C@H]([C@@H](C)O)NC(=O)[C@H]([C@H](O)[C@@H](O)c5ccc(O)cc5)NC(=O)[C@@H]5C[C@@H](O)CN5C(=O)[C@H]([C@@H](C)O)NC4=O)cc3)cc2)cc1` is reported as 0.06 µg/mL (CLSI broth microdilution; 98-17).
The MIC of `OC(Cn1cncn1)(Cn1cncn1)c1ccc(F)cc1F` is reported as 32 µM (SP3903, RPMI MOPS; 48 h, 37 °C).
With `CN(C/C=C/C#CC(C)(C)C)Cc1cccc2ccccc12` the MIC was 4 µg/mL (broth microdilution; BNCC 186382).
`C[C@@H]1[C@H](O)[C@@H](C)/C=C/C=C/C=C/C=C/C=C/C=C/C=C/[C@H](O[C@@H]2O[C@H](C)[C@@H](O)[C@H](N)[C@@H]2O)C[C@@H]2O[C@](O)(C[C@@H](O)C[C@@H](O)[C@H](O)CC[C@@H](O)C[C@@H](O)CC(=O)O[C@H]1C)C[C@H](O)[C@H]2C(=O)O` has an MIC of 1 µM (alveolar fluid isolate, RPMI MOPS; 48 h, 37 °C).
With `Nc1nc(=O)[nH]cc1F` the MIC was 8 µg/mL (broth microdilution; BNCC 186382).
`N#CC(C#N)=C1SC(C(=O)c2ccc(Nc3cnccn3)cc2)=NN1c1ccc([N+](=O)[O-])cc1` gave an MIC of 6.25 µg/mL (broth microdilution; ATCC 10231).
With `CCOC(=O)CON` the MIC was 32 µg/mL (CAF2-1).
With `CC[C@H](C)[C@H](NC(=O)CN)C(=O)N[C@@H](CC(C)C)C(=O)N[C@@H](CC(=O)O)C(=O)N[C@@H](C)C(=O)N[C@H](C(=O)N[C@@H](CCCCN)C(=O)N[C@@H](C)C(=O)N[C@H](C(=O)N[C@@H](C)C(=O)N[C@@H](CCCCN)C(=O)N[C@@H](C)C(=O)N[C@@H](C)C(=O)NCC(N)=O)[C@@H](C)CC)[C@@H](C)CC` the MIC was 256 µg/mL (ATCC 90029, RPMI MOPS; 24 h, pH 7.0, 33 °C).
`OC(Cn1cncn1)(Cn1cncn1)c1ccc(F)cc1F` has an MIC of 1 µg/mL (broth microdilution; 322; 24 h, compound alone).
For `NOCC(=O)O`, the MIC was 1000 µg/mL (CAF2-1).

A few entries again:
With `Nc1nc(=O)[nH]cc1F` the MIC was 8 µg/mL (broth microdilution; BNCC 186382).
